# Experimental data of several laboratories.
# Numbered parts are unrelated; each lists some results of a single study.

# Sample 1
# Target: Prothrombin, mature alpha-thrombin (F2, Homo sapiens, UniProt P00734)
# Technique: aptamer microarray, sandwich
# Molecule type: DNA with 2'F-ANA
# Sample: in vitro
# Concentration: 200 nM
# Setting: whole 15-mer aptamer, many near background
# Added: Cy3 exosite-II aptamer, 400 nM
# Reading: higher = stronger binding
# Oligonucleotide: GGTTGGTGTGGTTGG
Modification,mean fluorescence intensity [a.u.]
2'F-ANA at 1 2 3 6 7 9 11 15,121
2'F-ANA at 1 4 6 7 11 12 14,54.4
2'F-ANA at 3 6 8 9 10 11 12,513
2'F-ANA at 1 4 5 8,69
2'F-ANA at 2 3 6 9 11 12 13,715
2'F-ANA at 2 3 4 8 9 11 12 13 15,560

# Sample 2
# Target: Histone acetyltransferase KAT6A, winged helix 1, GST fusion (KAT6A, Homo sapiens, UniProt Q92794, residues 1-85)
# Technique: protein binding microarray
# Molecule type: double-stranded DNA, one strand shown
# Sample: in vitro
# Concentration: not given
# Setting: 8-mer, flanks averaged, mean of 2 arrays, mostly near background
# Reference: not given
# Reading: higher = stronger binding
# Target sequence (chain): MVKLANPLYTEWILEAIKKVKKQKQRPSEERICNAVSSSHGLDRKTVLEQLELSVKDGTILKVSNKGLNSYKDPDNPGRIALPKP
Oligonucleotide,E-score
TAAACTAA,-0.22
CGTGAGAC,0.127
ATATCAGG,-0.13
GTATCAAA,-0.14
CACGATAA,-0.167

# Sample 3
# Target: Interferon regulatory factor 7, full length, phosphomimetic (IRF7, Homo sapiens, UniProt Q92985, residues 1-503, S471D/S472D/S475D/S476D/S477D/S483D/S484D/S487D)
# Sequence of UniProt Q92985 (whole entry, unmodified, looked up): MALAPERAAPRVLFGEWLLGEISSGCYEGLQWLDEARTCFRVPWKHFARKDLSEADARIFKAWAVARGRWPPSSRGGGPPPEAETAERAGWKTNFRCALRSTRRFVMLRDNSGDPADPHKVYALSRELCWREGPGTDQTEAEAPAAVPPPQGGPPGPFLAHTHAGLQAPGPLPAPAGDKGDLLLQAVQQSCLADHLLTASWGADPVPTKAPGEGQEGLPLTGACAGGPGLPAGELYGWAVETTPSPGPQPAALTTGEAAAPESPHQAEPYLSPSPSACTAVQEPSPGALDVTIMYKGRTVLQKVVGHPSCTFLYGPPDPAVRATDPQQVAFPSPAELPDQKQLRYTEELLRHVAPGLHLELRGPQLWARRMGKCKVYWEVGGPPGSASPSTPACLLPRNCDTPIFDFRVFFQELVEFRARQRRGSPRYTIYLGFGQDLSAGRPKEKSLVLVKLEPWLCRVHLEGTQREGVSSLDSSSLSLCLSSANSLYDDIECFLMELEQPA
# Technique: protein-binding microarray
# Molecule type: double-stranded DNA, one strand shown
# Sample: in vitro
# Concentration: 2200 nM top
# Setting: 60-bp whole probe
# Added: salmon DNA 0.4 mg/ml
# Reference: random background probes
# Reading: higher = stronger binding
# Constant ends, left off below: GCCTAGCAC … GTCTTGATTCGCTTGACGCTGCTG
Oligonucleotide,fitted relative affinity
ATATATATATTGTTAGTGTAGTGCTAG,0.916 z-score
TCAAATGATTGGTTGAAACTGTGCTAG,-0.274 z-score
TTAGGACTGGACACTGGGATAGTGCTA,-0.691 z-score
GACGGTAACGGGTATCGGGACGTGCTA,-0.746 z-score
TTAGATCTCAGTATCGACTAGTGCTAG,0.0503 z-score

# Mixed results
Substance,target,assay,system,conditions,how to read,quantity,result
"PhoQ, residues 284 288 289 292 302 303 ASVMEA","PhoP, residues 12 14 15 18 19 QQAYL (Escherichia coli, UniProt P23836)","Sort-seq, refers to: YFP reporter",E. coli,"PhoQ-PhoP variant library, added: 10 µM Mg2+","reference: high Mg2+ state, higher = stronger signaling",fold induction,6.88

# For quick reference, copied from above (sample 2):
Oligonucleotide,E-score
ATATCAGG,-0.13
